Measured values from different studies.
Protocols differ between the studies behind these lines. ± gives the spread as reported.
rep main protease: Replicase polyprotein 1ab, main protease (rep, Severe acute respiratory syndrome coronavirus 2, UniProt P0DTD1)

`CNc1nc(NC(CCO)c2ccccc2Cl)nc(N2CCN(C(=O)CCl)C(C(=O)NCC(N)=O)C2)n1` (centres unmarked) has an IC50 of 340 nM (rep main protease; enzyme activity, inhibitor).
With `O=C(O)c1cc(O)c(O)c(O)c1` the IC50 was 6180 ± 70 nM (rep main protease; inhibitor).
For `CC(=O)N[C@@H](Cc1ccc(O)cc1)C(=O)N[C@@H](CCCNC(=N)N)C(=O)N[C@@H](Cc1ccccc1)C(=O)N[C@@H](C)C(=O)N[C@@H](CCCNC(=N)N)C(=O)N[C@@H](CC(N)=O)C(=O)N[C@@H](C)C(=O)N[C@H](C(=O)N[C@@H](Cc1ccccc1)C(=O)N[C@@H](C)C(=O)N[C@@H](Cc1ccccc1)C(=O)N[C@@H](Cc1ccc(O)cc1)C(=O)N[C@@H](C)C(=O)N[C@H](C(=O)N[C@@H](CC(=O)O)C(N)=O)[C@@H](C)O)C(C)C`, the IC50 was 2900 nM (rep main protease; enzyme activity, inhibitor).
`Nc1ncnc2c1ncn2[C@@H]1O[C@H](CSc2ccc(Cl)c(C(=O)O)c2)[C@@H](O)[C@H]1O` has an IC50 of 21 nM (Replicase polyprotein 1ab, nsp16 with nsp10 (rep, Severe acute respiratory syndrome coronavirus 2, UniProt P0DTD1); methyltransferase activity, inhibitor; 30 min, 30 °C, added: SAM 10 µM).
For `O=c1c(O[C@@H]2O[C@H](CO)[C@@H](O)[C@H](O)[C@H]2O)c(-c2ccc(O)c(O)c2)oc2cc(O)cc(O)c12`, the IC50 was greater than 30000 nM (Replicase polyprotein 1ab, nsp13 helicase (rep, Severe acute respiratory syndrome coronavirus 2, UniProt P0DTD1); ATPase activity; no nucleic acid).
`O=C(NCCc1cccc(F)c1)[C@H](c1cncnc1)N(C(=O)[C@H](F)Cl)c1ccc(S(F)(F)(F)(F)F)cc1` has an IC50 of 2240 nM (rep main protease; enzyme activity, inhibitor).
The IC50 of `O=c1c2ccccc2sn1-c1ccccc1` is reported as 190 ± 20 nM (rep main protease; enzyme activity, inhibitor; 10 min preincubation).
With `CCOC(=O)[C@H](C(C)C)n1[se]c2ccccc2c1=O` the IC50 was 56.3 nM (rep main protease; enzyme activity, inhibitor).
With `CC(C)(C)c1ccc(C(=O)NOC(=O)OCc2ccccc2)cc1` the IC50 was 31500 nM (rep main protease; enzyme activity, inhibitor, FRET).
For `[2H]C1([2H])CC[C@@H](C[C@@H](C#N)NC(=O)[C@@H]2[C@@H]3[C@H](CN2C(=O)[C@@H](NC(=O)C(F)(F)F)C(C)(C)C)C3(C)C)C(=O)N1`, the IC50 was 41 nM (rep main protease; enzyme activity, inhibitor).
For `CNC(=O)C[C@H](Cc1ccc(F)cc1)NC(=O)[C@@H](Cc1ccc(Cl)cc1Cl)NC(=O)[C@H](N)Cc1ccccc1C#N`, the IC50 was greater than 10000 nM (Replicase polyprotein 1ab, papain-like protease (rep, Severe acute respiratory syndrome coronavirus 2, UniProt P0DTD1); enzyme activity, inhibitor).
With `Cc1c(C(=O)N2c3ccccc3NC(=O)C2CC(=O)Nc2ccc(Cl)c(Cl)c2)oc2ccccc12` (centres unmarked) the IC50 was less than 50000 nM (rep main protease; Rev-Nluc reporter, inhibitor).
With `N#Cc1ccccc1CC(N)C(=O)NC(Cc1ccc(Cl)cc1Cl)C(=O)NC(CC(=O)NCCc1ccccc1)Cc1ccc(F)cc1` (centres unmarked) the IC50 was 500 nM (rep main protease; enzyme activity, inhibitor, fluorescence).
For `CCCCCCCCCCCCCCCC(=O)N[C@@H](CCC(=O)NCCOCCOCCC(=O)NCCOCCOCCC(=O)NCCCC[C@H](NC(=O)[C@H](CC(=O)O)NC(=O)[C@H](CC(C)C)NC(=O)[C@H](Cc1ccc(O)cc1)NC(=O)[C@H](CCCCN)NC(=O)[C@H](CO)NC(=O)[C@H](Cc1ccc(O)cc1)NC(=O)[C@H](CC(=O)O)NC(=O)[C@H](CO)NC(=O)[C@@H](NC(=O)[C@H](Cc1ccccc1)NC(=O)[C@@H](NC(=O)CNC(=O)[C@H](CCC(N)=O)NC(=O)[C@@H](CO)NC(=O)[C@@H](N)Cc1c[nH]cn1)[C@@H](C)O)[C@@H](C)O)C(=O)N[C@@H](CCCNC(=N)N)C(=O)N[C@@H](CCCNC(=N)N)C(=O)N[C@@H](C)C(=O)N[C@@H](CCC(N)=O)C(=O)N[C@@H](CC(=O)O)C(=O)N[C@@H](Cc1ccccc1)C(=O)N[C@H](C(=O)N[C@@H](CCC(N)=O)C(=O)N[C@@H](Cc1c[nH]c2ccccc12)C(=O)N[C@@H](CC(C)C)C(=O)N[C@@H](CC(C)C)C(=O)N[C@@H](CC(N)=O)C(=O)N[C@H](C(=O)NCC(=O)NCC(=O)N1CCC[C@H]1C(=O)N[C@@H](CO)C(=O)N[C@@H](CO)C(=O)NCC(=O)N[C@@H](C)C(=O)N1CCC[C@H]1C(=O)N1CCC[C@H]1C(=O)N1CCC[C@H]1C(=O)N[C@@H](CO)C(N)=O)[C@@H](C)O)C(C)C)C(=O)O`, the MRT was 5.7 h (rhesus monkey, plasma; subcutaneous, 60 µg/kg, single dose).
With `CC1CC(c2ccc(C(=O)O)o2)=NN1c1ccc(C#N)c(Cl)c1` (centres unmarked) the IC50 was 63100 nM (Replicase polyprotein 1ab, methyltransferase (rep, Severe acute respiratory syndrome coronavirus 2, UniProt P0DTD1); enzyme activity, inhibitor).
The IC50 of `CC(=O)Oc1ccc(/C=C/C(=O)O[C@@H]2Cc3c(O)cc(O)cc3O[C@@H]2c2cc(O)c(O)c(O)c2)cc1` is reported as 32000 nM (rep main protease; enzyme activity, inhibitor, FRET).
The IC50 of `C=CCn1c(C)cc(C(=O)COn2nnc3ccc(S(=O)(=O)N(C)C)cc32)c1C` is reported as 1670 nM (rep main protease; enzyme activity, inhibitor).
